Experimental data pooled from the literature.
Compare with care: the assays were run in different laboratories. “And” joins repeats or separate records; there may be more than shown.
EPHA5: Ephrin type-A receptor 5 (EPHA5, Homo sapiens, UniProt P54756)
TDP1: Tyrosyl-DNA phosphodiesterase 1 (TDP1, Homo sapiens, UniProt Q9NUW8)
UniProt Q9NUW8, sequence (whole entry, looked up): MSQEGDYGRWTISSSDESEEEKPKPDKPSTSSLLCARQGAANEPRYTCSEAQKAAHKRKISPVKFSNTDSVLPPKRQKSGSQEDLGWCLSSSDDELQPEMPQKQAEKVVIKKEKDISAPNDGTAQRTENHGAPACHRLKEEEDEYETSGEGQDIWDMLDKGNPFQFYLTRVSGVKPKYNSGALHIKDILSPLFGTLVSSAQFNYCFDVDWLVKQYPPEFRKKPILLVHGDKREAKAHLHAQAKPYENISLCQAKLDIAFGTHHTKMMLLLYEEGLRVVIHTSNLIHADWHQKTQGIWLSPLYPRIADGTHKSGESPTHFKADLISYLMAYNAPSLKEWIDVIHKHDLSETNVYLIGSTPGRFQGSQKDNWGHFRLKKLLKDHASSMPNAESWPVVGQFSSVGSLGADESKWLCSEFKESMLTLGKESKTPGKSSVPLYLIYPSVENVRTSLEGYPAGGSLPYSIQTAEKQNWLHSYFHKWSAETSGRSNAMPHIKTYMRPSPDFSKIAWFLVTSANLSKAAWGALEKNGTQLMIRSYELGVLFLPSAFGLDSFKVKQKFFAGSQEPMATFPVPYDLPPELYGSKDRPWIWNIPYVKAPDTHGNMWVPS

`C=CC(=O)N1Cc2nc(-c3cc(-c4cc(Cl)cnc4Cl)c(F)cc3F)n(-c3ccncn3)c2C1` has an inhibition of 9.3% (EPHA5; cell-free assay; 1 µM).
For `CNC(=O)C[C@H](Cc1ccc(C#N)cc1)NC(=O)c1cc(-c2ccc(CN[C@H](C)c3ccc(C)cc3)o2)ccc1Cl`, “activity vs control” read 100% (EPHA5; enzyme activity, inhibitor; 1 µM).
For `COc1c(OCCCN2CCOCC2)ccc2c1N=C(NC(=O)c1cnc(N)nc1)N1CCN=C21`, the remaining activity was 48% (EPHA5; kinase activity, inhibitor; 1 µM; reference: untreated control).
For `COCC12C(=O)NC3C4(C(OC)CC1O)C1CC5(O)C(OC)C(O)C(OC(C)=O)(C1C5OC(=O)c1ccccc1)C3(O)C(OC)C24` (stereo not drawn), the remaining activity was 89% and 101% (EPHA5; kinase activity, inhibitor, ProQinase kinase profiling; 25 µM; reference: control).
`CNC(=O)C1CCN(c2cc(C)c(F)cc2NC(=O)c2ccc(-c3cc(O)ccc3C)c(C)c2)CC1` gave a remaining binding of 3.2% (EPHA5; binding, competition with immobilised ligand; 1 µM).
The remaining activity of `COc1cc(Nc2nc(C)cc(-c3cnn4nc(OC)ccc34)n2)cc(C(F)(F)F)c1` is reported as 96% (EPHA5; inhibitor; 1 µM; reference: control).
`O=C(Cc1ccc(OCc2ccccc2)cc1)NC1(C(=O)O)CCN(C(=O)c2ccc(-c3cccc(Cl)c3)cc2)CC1`: “activity vs control” 109% (EPHA5; enzyme activity, inhibitor; 10 µM).
`O=C(O)CCC(=O)c1cccc(NS(=O)(=O)c2c[nH]c3ncccc23)c1` gave a remaining activity of 99% (EPHA5; kinase activity, radiometric; 10 µM).
The inhibition of `NC(=O)[C@@H](O)C[C@H]1CCc2sc3ncnc(O[C@H]4CC[C@H](N5CCOCC5)CC4)c3c21` is reported as 16% (EPHA5; enzyme activity, inhibitor; 10 µM).
The remaining binding of `CCN1CCN(Cc2ccc(NC(=O)c3ccc(C)c(NC(=O)c4cncc(-c5cccs5)c4)c3)cc2C(F)(F)F)CC1` is reported as 4.8% (EPHA5; binding, competition with immobilised ligand; 1 µM).
For `Nc1ncc2c(n1)-c1c([nH]c3ccc(C4=CCOCC4)cc13)CCC2`, the remaining binding was 87% (EPHA5; binding, competition with immobilised ligand; 1 µM).
`COC(=O)c1cccc(C=NOCc2ccc(-c3nc4cc(-c5ccccc5)ccn4c3Nc3ccc(C(=O)O)cc3)cc2)c1O` has an inhibition of 28.9% (TDP1; enzyme activity, inhibitor; 100 µM, unpurified compound).
For `C=CC(=O)N1CCc2ccc(-n3c(=O)ccc4cnc5ccc(-c6cnn(C)c6)cc5c43)cc21`, the remaining binding was 100% (EPHA5; KINOMEscan; 1 µM; reference: DMSO control).
`Cc1cnc2nc1Nc1cccc(c1)COC/C=C/COCc1cc(ccc1OCCN1CCOCC1)N2` has a remaining binding of 100% (EPHA5; binding; 0.1 µM).
`Cc1cccc(O[C@H]2CCC[C@@H](C(C)CNCc3ccncc3)C2)c1` (relative stereo) has an inhibition of 3% (EPHA5; kinase activity, kinome panel screening; 1 µM).
The inhibition of `C=CC(=O)Nc1cccc(-c2cnc3[nH]cc(C(=O)NC(C)(C)C)c3n2)c1` is reported as 0% (EPHA5; enzyme activity, inhibitor; 0.1 µM).
With `Cc1nc(C)c2c(C)c(C=NOCc3ccc(-c4nc5cc(-c6ccccc6)ccn5c4Nc4ccc(C(=O)O)cc4)cc3)sc2n1` (mixture of isomers) the inhibition was 95.7% (TDP1; enzyme activity, inhibitor; 100 µM, unpurified compound).
With `CNC1C[S+]2CC[S+]3CC[S+](C1)[Ru-4]321([N]=C=S)[n]2c3ccc(OC)cc3c3c4c(c5cc(F)c[n+]1c5c32)C(=O)NC4=O` (stereo not drawn) the remaining binding was 86% (EPHA5; KinomeScan; 0.1 µM; reference: untreated).

Some of these lines once more:
The inhibition of `NC(=O)[C@@H](O)C[C@H]1CCc2sc3ncnc(O[C@H]4CC[C@H](N5CCOCC5)CC4)c3c21` is reported as 16% (EPHA5; enzyme activity, inhibitor; 10 µM).
`Cc1cccc(O[C@H]2CCC[C@@H](C(C)CNCc3ccncc3)C2)c1` (relative stereo) has an inhibition of 3% (EPHA5; kinase activity, kinome panel screening; 1 µM).
For `C=CC(=O)N1CCc2ccc(-n3c(=O)ccc4cnc5ccc(-c6cnn(C)c6)cc5c43)cc21`, the remaining binding was 100% (EPHA5; KINOMEscan; 1 µM; reference: DMSO control).
